Published values pooled from the literature.
Each line is one published result; not all experiments were run side by side. “And” joins repeats or separate records; there may be more than shown. ± marks the error that the study gave.
lasR: Transcriptional activator protein LasR (lasR, Pseudomonas aeruginosa, UniProt P25084)
UniProt P25084, sequence (whole entry, looked up): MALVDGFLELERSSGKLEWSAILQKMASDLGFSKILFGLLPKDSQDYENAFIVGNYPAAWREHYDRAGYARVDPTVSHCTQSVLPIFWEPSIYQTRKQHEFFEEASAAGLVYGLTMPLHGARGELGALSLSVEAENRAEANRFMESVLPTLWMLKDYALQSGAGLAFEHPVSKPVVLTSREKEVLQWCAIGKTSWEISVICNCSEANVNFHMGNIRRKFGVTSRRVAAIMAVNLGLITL
Uncharacterized hydrolase SAUSA300_2518: Uncharacterized hydrolase SAUSA300_2518 (Staphylococcus aureus, UniProt Q2FDS6)
UniProt Q2FDS6, sequence (whole entry, looked up): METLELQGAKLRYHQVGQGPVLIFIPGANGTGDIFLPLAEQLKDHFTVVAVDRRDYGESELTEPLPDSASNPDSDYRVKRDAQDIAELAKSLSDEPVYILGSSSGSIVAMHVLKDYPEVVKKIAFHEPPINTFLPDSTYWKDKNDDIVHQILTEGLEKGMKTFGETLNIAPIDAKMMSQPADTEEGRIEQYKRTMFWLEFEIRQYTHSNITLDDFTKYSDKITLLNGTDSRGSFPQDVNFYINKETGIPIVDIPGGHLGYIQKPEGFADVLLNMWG
UniProt Q9Y2J8, sequence (whole entry, looked up): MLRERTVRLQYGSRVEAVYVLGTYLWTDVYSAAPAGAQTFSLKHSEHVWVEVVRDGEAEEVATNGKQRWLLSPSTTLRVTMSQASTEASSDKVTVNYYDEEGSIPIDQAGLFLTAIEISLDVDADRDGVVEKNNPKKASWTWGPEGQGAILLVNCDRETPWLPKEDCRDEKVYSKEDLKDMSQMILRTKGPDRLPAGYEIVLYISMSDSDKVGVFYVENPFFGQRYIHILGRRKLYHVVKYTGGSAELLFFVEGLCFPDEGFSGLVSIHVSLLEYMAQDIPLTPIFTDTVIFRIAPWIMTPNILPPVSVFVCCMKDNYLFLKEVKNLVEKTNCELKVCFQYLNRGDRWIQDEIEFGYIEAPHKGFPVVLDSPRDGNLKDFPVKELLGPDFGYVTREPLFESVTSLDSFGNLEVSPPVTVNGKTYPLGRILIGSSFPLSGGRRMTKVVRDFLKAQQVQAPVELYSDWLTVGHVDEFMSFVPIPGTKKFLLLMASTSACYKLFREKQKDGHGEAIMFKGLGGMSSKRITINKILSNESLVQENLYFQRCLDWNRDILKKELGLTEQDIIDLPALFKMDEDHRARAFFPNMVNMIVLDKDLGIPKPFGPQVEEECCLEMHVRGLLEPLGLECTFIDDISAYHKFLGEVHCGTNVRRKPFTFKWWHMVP
UniProt Q8IWT6, sequence (whole entry, looked up): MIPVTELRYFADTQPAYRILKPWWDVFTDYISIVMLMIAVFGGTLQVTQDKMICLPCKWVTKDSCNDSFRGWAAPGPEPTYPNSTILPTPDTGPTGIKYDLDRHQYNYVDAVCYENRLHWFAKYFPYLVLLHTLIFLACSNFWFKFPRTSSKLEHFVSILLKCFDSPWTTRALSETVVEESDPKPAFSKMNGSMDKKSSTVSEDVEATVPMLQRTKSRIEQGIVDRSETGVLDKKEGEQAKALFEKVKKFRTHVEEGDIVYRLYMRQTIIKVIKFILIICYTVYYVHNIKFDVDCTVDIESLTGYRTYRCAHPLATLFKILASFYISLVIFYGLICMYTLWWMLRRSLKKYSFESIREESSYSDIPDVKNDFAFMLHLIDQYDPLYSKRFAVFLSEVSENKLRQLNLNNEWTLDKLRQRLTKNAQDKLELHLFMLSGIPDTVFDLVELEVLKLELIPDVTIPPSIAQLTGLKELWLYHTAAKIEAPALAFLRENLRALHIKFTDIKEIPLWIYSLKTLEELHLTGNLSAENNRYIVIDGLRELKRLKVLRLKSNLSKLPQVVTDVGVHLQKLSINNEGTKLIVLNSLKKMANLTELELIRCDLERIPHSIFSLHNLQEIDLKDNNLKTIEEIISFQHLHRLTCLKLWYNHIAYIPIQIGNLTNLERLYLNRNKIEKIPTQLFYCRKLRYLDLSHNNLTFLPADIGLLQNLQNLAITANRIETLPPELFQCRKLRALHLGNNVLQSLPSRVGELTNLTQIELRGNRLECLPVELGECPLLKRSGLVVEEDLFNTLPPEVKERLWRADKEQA
UniProt P08913, sequence (whole entry, looked up): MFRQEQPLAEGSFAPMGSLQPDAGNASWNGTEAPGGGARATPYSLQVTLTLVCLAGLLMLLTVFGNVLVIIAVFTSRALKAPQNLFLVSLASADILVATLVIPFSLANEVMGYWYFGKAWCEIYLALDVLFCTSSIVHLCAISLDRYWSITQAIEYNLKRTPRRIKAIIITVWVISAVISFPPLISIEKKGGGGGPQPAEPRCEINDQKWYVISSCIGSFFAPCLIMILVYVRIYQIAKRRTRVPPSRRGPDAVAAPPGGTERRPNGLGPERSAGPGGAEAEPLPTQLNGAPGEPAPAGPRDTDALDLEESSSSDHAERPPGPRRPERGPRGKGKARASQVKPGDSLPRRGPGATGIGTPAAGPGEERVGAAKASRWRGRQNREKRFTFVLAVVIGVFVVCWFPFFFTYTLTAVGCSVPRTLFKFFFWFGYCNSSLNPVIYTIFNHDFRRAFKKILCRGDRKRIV
UniProt Q99873, sequence (whole entry, looked up): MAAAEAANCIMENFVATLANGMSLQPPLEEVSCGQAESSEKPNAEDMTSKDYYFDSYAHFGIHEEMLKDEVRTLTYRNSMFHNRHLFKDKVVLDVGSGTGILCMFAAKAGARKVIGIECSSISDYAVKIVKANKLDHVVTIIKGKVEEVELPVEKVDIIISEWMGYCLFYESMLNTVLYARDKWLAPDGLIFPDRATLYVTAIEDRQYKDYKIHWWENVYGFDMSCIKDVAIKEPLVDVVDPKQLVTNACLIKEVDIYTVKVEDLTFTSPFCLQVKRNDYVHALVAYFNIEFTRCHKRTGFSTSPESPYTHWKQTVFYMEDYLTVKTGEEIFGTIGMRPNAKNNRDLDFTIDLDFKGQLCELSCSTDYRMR
UniProt P78417, sequence (whole entry, looked up): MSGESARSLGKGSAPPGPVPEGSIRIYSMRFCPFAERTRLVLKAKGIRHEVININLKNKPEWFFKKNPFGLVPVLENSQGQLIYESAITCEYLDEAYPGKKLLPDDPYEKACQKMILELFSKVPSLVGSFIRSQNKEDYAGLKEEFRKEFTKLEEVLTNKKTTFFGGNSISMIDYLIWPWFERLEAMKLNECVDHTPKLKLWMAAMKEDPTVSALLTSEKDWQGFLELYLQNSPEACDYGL
UniProt P23443, sequence (whole entry, looked up): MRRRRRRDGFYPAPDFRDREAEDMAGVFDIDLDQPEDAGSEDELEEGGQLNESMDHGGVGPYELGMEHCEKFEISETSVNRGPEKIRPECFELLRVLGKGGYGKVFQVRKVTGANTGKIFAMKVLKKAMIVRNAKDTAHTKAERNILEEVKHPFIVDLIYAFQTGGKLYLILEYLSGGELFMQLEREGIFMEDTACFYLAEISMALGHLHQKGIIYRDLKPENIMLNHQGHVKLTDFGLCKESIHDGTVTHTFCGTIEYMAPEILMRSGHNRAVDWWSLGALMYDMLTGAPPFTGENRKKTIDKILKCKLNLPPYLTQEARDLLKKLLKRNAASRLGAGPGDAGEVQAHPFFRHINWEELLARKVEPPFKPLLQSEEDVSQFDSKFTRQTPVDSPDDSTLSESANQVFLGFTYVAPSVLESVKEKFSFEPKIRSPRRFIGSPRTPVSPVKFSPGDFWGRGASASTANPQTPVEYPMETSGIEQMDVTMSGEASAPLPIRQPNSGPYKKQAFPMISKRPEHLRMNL
UniProt P11309, sequence (whole entry, looked up): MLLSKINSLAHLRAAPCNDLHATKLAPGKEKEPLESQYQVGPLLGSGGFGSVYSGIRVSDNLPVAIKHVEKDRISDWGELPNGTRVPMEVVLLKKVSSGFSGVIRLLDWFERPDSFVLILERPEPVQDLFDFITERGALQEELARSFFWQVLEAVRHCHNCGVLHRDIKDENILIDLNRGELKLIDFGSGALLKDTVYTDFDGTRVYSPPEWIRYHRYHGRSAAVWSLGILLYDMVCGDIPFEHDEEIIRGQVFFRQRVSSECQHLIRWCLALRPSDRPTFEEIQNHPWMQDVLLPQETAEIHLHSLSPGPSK
UniProt P43403, sequence (whole entry, looked up): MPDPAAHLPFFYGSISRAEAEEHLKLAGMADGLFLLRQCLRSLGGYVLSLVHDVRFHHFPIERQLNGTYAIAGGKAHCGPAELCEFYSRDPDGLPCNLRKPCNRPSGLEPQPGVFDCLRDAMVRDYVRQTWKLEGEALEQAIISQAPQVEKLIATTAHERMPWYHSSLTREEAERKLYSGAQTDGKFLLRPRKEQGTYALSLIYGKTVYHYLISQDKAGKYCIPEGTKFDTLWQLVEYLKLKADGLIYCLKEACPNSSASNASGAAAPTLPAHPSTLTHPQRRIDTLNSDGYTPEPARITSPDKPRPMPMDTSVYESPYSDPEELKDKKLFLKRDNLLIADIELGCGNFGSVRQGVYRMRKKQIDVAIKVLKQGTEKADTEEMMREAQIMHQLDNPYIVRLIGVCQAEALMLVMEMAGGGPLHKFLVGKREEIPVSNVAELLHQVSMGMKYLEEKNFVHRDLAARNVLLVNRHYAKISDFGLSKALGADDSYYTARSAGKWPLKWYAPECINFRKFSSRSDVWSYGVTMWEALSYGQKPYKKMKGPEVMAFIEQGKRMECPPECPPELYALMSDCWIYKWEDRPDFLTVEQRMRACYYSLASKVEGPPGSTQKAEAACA
UniProt Q00526, sequence (whole entry, looked up): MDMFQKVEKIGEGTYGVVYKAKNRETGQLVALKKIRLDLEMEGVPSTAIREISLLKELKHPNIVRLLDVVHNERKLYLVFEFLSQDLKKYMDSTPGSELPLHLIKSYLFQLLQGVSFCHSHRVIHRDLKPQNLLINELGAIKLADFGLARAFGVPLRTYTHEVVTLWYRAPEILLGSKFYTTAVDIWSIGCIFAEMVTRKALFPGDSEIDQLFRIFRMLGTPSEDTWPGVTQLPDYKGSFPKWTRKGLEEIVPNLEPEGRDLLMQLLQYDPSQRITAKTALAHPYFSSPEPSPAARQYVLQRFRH

For `O=C1C=CC(=Cc2c(-c3ccc(Cl)cc3)[nH]oc2=O)C=C1`, the inhibition was 92% (Glutathione S-transferase omega-1 (GSTO1, Homo sapiens, UniProt P78417); 5 µM).
With `CN(C)[C@H]1C[C@@]23CC[C@@]4(O2)C(=CC[C@]2(C)[C@@H](c5ccc6ccncc6c5)CC[C@H]24)C=C3[C@@H](O)[C@@H]1O` the inhibition was -4.6% (RAF proto-oncogene serine/threonine-protein kinase (RAF1, Homo sapiens, UniProt P04049); ATP probe labelling, inhibitor, KiNativ profiling; 1 µM).
With `O=C(CCCOc1cccc(Br)c1)N[C@H]1CCSC1=O` the inhibition was -85% (lasR; reporter gene, antagonist; Pseudomonas aeruginosa PAO-JP2; 100 µM, plasI-LVAgfp reporter, together with: OdDHL 150 nM).
For `O=c1cc(-c2ccc(O)cc2)oc2c(C3OC(CO)C(O)C(O)C3O)c(O)c(C3OC(CO)C(O)C(O)C3O)c(O)c12` (centres unmarked), the inhibition was 4.71% (3',5'-cyclic-AMP phosphodiesterase 4D (PDE4D, Homo sapiens, UniProt Q08499); enzyme activity, inhibitor, radiometric; 50 µM).
For `CCc1nnc(-c2c(OC)cc(-c3cnc4cc(-c5cnn(C)c5)ccn34)cc2OC)o1`, the inhibition was -7% (Alpha-2A adrenergic receptor (ADRA2A, Homo sapiens, UniProt P08913); antagonist radioligand, radioligand binding; 10 µM, SafetyScreen44 alpha 2 A).
With `O=C(O)c1ccccc1/C=N/Nc1nc(-c2ccccc2Cl)cs1` the inhibition was -1.13% (Ribosomal protein S6 kinase beta-1 (RPS6KB1, Homo sapiens, UniProt P23443); enzyme activity, inhibitor; 1 µM).
The inhibition of `C[C@H](NCc1ccc(-c2ccc(C(F)(F)F)cc2)cc1)C(N)=O` is reported as 2% (Cyclin-dependent kinase 19 (CDK19, Homo sapiens, UniProt Q9BWU1); cell-free assay, competition with immobilised ligand; 1 µM).
For `CCCCC1(C2CCCC2)Cc2cc(OCCCC(=O)O)c(Cl)c(Cl)c2C1=O` (centres unmarked), the inhibition was 90.3 ± 2% (LRRC8A (Homo sapiens, UniProt Q8IWT6); ion current, inhibitor; HEK293; 10 µM, together with: hypotonic stimulation).
`O=C(Nc1ccncc1)c1ccccc1OS(=O)(=O)F` gave an inhibition of 92% (Uncharacterized hydrolase SAUSA300_2518; enzyme activity, inhibitor, fluorogenic substrate; 50 µM, 1 h preincubation).
For `O=C(NCc1cc(Br)cc(Br)c1OC(=O)c1ccccc1[N+](=O)[O-])c1ccccc1Cl`, the inhibition was -71% (lasR; reporter gene, antagonist; Pseudomonas aeruginosa PAO-JP2; 100 µM, plasI-LVAgfp reporter, together with: OdDHL 150 nM).
With `O=C1C(Nc2ncccc2[N+](=O)[O-])CN1c1ccc(F)cc1` (centres unmarked) the inhibition was 33% (Uncharacterized hydrolase SAUSA300_2518; enzyme activity, inhibitor; 50 µM).
`CN(/N=C/c1ccccc1C(=O)O)c1nc(-c2ccccc2Cl)cs1` has an inhibition of 3.78% (Serine/threonine-protein kinase Nek1 (NEK1, Homo sapiens, UniProt Q96PY6); enzyme activity, inhibitor; 1 µM).
The inhibition of `N[C@H](C(=O)N1CCCC1)C1CCN(c2nccc3c(-c4ncc(Cl)cc4Cl)cccc23)CC1` is reported as 99.4% (Protein-arginine deiminase type-2 (PADI2, Homo sapiens, UniProt Q9Y2J8); enzyme activity, inhibitor; 9.6 µM, together with: Ca2+ 0.25 mM).
With `CCC1CC(c2ccc(C(=O)O)cc2C)=NN1c1ccc(C#N)c(Cl)c1` (centres unmarked) the inhibition was 4% (Protein arginine N-methyltransferase 1 (PRMT1, Homo sapiens, UniProt Q99873); enzyme activity, inhibitor; 10 µM).
The inhibition of `CCOC(=O)[C@](CC)(CCCSCCOCCOCCNC(=O)c1ccc(-c2c3ccc(=N)c(S(=O)(=O)O)c-3oc3c(S(=O)(=O)O)c(N)ccc23)c(C(=O)O)c1)NC(=O)c1ccc(C2CC2)c(Cc2ccc(F)cc2)n1` is reported as 39% (Tyrosine-protein kinase ZAP-70 (ZAP70, Homo sapiens, UniProt P43403); enzyme activity, inhibitor; 10 µM).
With `CCCCCCCCCC(=O)CC(=O)Nc1ccccc1O` the inhibition was -66% (lasR; reporter gene, antagonist; Escherichia coli JLD271; 10 µM, pSC11 and pJN105L plasmids, together with: OdDHL 2 nM).
The inhibition of `C=CC(=O)Nc1cc(-c2nn(C3CCC(N4CCN(C(C)=O)CC4)CC3)c3ncnc(N)c23)ccc1Oc1ccccc1` (centres unmarked) is reported as -7.6% (Calcium/calmodulin-dependent protein kinase type II subunit delta (CAMK2D, Homo sapiens, UniProt Q13557); inhibitor, KiNativ profiling; biochemical; 2 µM).
With `CCCC(=O)CC(=O)N[C@H]1CCOC1=O` the inhibition was 51% (lasR; reporter gene, antagonist; Pseudomonas aeruginosa PAO-JP2; 100 µM, plasI-LVAgfp reporter, together with: OdDHL 150 nM).
With `CC(C)[C@H]1NC(=O)C[C@H]2/C=C/CCSSC[C@@H](NC1=O)C(=O)N[C@H](Cc1cccc3ccccc13)C(=O)NCC(=O)O2` the inhibition was 2.6% (Serine/threonine-protein kinase pim-1 (PIM1, Homo sapiens, UniProt P11309); enzyme activity, inhibitor; 10 µM).
`CCCCCCCCCC(=O)CC(=O)Nc1cccc(OC)c1` gave an inhibition of 42% (lasR; reporter gene, antagonist; Pseudomonas aeruginosa PAO-JP2; 100 µM, plasI-LVAgfp reporter, together with: OdDHL 150 nM).
`O=C(CN1CN(c2ccccc2)C2(CCN(C(=O)c3cnc4[nH]ncc4c3)CC2)C1=O)NCC(F)(F)F` has an inhibition of under 50% (Cyclin-dependent kinase 3 (CDK3, Homo sapiens, UniProt Q00526); inhibitor; concentration not given).
`CC(=O)NC[C@@H]1C[C@@H](O)[C@H]2[C@H](O)C[C@@H](CO)N12` gave an inhibition of 22.1% and 16.2% (β-N-acetylglucosaminidase; enzyme activity, inhibitor, colorimetric; Canavalia ensiformis; 37.5 nM, together with: p-nitrophenyl GlcNAc substrate).
`CS(C)(=O)=Nc1ccc(-c2ccc(-c3nc4cc(O[C@@H]5CO[C@H]6[C@@H]5OC[C@H]6O)[nH]c4cc3F)cc2)cc1` gave an inhibition of 13% (Homeodomain-interacting protein kinase 2 (HIPK2, Homo sapiens, UniProt Q9H2X6); enzyme activity, inhibitor; 10 µM).
